Measurements collected from several papers.
Parts stem from different laboratories: compare values within a part only.
Sequence of UniProt P42336 (whole entry, unmodified, looked up): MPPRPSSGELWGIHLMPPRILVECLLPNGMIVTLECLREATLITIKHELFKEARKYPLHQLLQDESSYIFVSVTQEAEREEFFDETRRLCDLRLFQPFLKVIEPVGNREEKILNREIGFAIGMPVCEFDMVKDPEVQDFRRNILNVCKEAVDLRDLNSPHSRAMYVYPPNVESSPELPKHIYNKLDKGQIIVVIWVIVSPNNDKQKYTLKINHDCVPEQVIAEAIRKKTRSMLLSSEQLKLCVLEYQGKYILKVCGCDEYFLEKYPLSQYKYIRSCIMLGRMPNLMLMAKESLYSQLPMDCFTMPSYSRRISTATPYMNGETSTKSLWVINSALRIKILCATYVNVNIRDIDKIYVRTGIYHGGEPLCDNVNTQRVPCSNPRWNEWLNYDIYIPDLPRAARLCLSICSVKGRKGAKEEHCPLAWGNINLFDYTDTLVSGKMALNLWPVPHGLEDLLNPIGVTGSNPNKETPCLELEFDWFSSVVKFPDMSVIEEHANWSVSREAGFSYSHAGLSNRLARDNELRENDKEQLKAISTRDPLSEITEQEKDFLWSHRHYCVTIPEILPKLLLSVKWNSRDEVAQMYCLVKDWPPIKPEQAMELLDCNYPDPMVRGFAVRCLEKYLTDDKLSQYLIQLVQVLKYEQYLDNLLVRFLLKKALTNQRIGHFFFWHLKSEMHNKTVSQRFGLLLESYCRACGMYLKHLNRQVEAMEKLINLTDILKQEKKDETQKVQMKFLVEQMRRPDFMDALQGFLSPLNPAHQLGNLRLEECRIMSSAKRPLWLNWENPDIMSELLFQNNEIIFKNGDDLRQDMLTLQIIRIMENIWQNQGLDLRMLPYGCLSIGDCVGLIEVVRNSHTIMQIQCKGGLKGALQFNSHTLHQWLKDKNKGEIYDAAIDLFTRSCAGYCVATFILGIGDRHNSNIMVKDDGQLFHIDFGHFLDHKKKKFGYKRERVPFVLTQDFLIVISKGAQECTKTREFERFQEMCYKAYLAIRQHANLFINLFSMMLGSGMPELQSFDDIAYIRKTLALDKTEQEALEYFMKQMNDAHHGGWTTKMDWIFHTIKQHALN
Sequence of UniProt Q15759 (whole entry, looked up): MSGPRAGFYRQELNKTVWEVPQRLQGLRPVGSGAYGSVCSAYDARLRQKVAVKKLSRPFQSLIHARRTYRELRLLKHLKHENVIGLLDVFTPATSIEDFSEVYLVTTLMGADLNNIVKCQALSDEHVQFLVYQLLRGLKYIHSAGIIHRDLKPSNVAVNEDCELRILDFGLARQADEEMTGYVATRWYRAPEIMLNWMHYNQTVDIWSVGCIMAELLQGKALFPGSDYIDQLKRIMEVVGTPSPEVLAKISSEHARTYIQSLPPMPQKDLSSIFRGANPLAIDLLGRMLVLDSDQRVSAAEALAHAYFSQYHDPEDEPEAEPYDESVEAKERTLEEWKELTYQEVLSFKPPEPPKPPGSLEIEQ
Sequence of UniProt Q13873 (whole entry, looked up): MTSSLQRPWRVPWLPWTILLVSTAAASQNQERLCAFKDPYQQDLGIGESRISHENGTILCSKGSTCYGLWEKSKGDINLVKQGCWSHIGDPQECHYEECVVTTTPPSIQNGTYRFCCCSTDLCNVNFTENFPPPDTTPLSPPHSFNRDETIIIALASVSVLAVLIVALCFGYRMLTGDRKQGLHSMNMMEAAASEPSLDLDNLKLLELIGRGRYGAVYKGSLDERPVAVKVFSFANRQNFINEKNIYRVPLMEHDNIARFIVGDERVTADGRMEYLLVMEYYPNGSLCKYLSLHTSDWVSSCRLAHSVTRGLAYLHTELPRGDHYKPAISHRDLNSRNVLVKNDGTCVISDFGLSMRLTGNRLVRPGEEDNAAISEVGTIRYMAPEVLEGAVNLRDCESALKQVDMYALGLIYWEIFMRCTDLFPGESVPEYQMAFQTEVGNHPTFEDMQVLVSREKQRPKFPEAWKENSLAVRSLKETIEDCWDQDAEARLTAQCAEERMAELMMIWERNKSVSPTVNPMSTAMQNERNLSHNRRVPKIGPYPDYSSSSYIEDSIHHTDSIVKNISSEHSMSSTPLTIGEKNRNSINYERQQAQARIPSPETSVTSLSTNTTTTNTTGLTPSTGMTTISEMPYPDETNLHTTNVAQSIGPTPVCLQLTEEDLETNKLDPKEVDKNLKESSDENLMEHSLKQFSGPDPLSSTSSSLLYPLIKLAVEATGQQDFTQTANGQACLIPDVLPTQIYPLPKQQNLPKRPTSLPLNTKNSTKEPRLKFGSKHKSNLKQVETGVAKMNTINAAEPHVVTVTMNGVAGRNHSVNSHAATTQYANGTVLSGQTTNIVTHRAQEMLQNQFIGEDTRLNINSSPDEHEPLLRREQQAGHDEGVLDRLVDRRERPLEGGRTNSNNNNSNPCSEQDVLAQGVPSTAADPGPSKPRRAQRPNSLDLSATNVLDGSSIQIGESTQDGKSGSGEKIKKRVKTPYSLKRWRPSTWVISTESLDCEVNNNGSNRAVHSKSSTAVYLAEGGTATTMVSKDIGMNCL
Sequence of UniProt Q52WX2 (whole entry, looked up): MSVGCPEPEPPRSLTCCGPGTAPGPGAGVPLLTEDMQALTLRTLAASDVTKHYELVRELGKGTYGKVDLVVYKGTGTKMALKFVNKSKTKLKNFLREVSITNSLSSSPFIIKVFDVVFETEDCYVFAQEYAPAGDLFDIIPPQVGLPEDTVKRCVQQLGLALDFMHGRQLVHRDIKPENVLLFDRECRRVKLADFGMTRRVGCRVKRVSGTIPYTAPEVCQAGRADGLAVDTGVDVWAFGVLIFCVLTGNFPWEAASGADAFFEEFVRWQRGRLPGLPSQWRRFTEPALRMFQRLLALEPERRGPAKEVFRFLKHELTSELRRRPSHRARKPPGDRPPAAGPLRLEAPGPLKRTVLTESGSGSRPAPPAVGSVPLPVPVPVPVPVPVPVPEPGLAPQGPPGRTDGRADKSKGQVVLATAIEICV
Sequence of UniProt Q13131 (whole entry, looked up): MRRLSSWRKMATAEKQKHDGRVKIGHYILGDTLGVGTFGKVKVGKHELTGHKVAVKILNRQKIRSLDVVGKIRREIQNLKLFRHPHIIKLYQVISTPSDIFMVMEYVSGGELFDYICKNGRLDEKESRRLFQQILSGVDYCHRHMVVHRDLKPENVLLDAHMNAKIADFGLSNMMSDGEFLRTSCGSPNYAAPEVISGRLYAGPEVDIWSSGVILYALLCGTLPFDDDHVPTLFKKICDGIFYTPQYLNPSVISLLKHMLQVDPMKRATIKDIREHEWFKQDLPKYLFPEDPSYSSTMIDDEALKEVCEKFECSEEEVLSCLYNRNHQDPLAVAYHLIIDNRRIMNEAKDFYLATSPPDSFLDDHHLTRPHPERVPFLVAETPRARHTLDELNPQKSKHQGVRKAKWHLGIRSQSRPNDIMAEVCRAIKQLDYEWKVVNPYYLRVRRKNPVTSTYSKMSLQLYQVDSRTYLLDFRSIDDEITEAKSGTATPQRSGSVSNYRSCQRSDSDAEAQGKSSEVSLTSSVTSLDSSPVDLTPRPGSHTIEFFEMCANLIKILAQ
Sequence of UniProt Q96L34 (whole entry, looked up): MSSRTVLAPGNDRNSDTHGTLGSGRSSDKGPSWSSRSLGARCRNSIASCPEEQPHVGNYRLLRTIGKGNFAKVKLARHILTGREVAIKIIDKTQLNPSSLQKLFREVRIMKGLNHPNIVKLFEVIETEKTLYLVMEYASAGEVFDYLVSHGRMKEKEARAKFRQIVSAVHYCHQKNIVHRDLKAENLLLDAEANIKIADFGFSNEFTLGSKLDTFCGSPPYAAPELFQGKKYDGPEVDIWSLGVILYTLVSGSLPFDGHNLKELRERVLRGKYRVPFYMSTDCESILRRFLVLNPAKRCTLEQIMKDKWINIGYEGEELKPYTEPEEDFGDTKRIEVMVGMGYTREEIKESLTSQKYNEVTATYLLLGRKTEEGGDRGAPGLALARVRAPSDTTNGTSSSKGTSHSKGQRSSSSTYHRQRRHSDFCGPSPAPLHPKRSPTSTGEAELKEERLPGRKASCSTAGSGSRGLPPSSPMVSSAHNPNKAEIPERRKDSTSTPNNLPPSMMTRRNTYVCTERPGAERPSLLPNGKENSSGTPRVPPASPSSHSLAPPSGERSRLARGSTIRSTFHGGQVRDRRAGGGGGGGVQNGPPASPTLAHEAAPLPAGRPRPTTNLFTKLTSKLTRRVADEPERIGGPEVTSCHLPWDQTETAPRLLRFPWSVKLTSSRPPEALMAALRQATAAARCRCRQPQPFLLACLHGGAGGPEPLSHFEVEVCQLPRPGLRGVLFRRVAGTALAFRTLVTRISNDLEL
Sequence of UniProt Q9HAZ1 (whole entry, looked up): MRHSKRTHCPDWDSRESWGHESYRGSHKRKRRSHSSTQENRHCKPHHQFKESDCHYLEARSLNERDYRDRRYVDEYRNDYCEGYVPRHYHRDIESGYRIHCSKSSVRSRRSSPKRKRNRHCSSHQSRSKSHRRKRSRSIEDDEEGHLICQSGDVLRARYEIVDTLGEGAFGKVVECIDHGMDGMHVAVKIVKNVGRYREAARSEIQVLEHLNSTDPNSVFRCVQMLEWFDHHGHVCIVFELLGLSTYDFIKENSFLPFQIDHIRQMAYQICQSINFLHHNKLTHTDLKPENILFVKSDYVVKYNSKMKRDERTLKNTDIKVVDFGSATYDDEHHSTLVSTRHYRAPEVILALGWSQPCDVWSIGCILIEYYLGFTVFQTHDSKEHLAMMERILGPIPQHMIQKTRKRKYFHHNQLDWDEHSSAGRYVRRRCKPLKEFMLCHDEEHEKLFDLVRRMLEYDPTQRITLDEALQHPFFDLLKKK
Sequence of UniProt P06493 (whole entry, looked up): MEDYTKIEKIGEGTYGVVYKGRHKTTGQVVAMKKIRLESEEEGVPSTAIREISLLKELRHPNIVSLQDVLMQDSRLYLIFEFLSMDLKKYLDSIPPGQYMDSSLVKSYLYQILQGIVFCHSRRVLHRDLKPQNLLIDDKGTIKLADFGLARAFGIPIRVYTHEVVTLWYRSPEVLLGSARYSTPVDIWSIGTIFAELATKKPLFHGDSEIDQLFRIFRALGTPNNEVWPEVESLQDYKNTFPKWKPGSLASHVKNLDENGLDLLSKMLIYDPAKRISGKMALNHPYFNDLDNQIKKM

Study 1
Target: Max-binding protein MNT, bHLH-zipper, MAX partner unstated (MNT, Homo sapiens, UniProt Q99583, residues 220-300)
Technique: protein-binding microarray
Molecule type: double-stranded DNA, one strand shown
Medium: in vitro
Concentration: not given
Setting: k-mer, scored over probes, only values ≥0.25
Reading: higher = stronger binding
Construct (chain): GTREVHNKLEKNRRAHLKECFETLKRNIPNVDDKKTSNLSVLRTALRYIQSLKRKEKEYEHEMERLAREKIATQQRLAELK
With `ACACGAGA` the E-score was 0.374.
For `AACAGGTG`, the E-score was 0.317.
`CCTCGAGG` gave an E-score of 0.353.
`CCACGACC` gave an E-score of 0.252.
`AATCATGT` gave an E-score of 0.325.
For `AAGACACG`, the E-score was 0.295.
For `ACGTTGTC`, the E-score was 0.372.
`CGTGGCGA` has an E-score of 0.307.

Study 2
SMILES: COCCOc1nc(-c2ccc(Cl)nc2)nc2c1CN(C(=O)c1ncn3ccccc13)CC2
Effect on: cell-free assay
Technique: competition with immobilised ligand
Concentration: 0.1 µM
It gave 79% for remaining binding (STK17A (Homo sapiens, UniProt Q9UEE5)).
The remaining binding was 87% (PIK3CA (Homo sapiens, UniProt P42336, Q546K)).
The remaining binding was 73% (PRKACB (Homo sapiens, UniProt P22694)).
It gave 100% for remaining binding (Ribosomal protein S6 kinase alpha-5, N-terminal kinase domain (RPS6KA5, Homo sapiens, UniProt O75582)).
The remaining binding was 100% (FYN (Homo sapiens, UniProt P06241)).
IRAK4 (Homo sapiens, UniProt Q9NWZ3) — remaining binding: 100%.
For PIK3CA (Homo sapiens, UniProt P42336): remaining binding read 85%.
The remaining binding was 100% (SBK1 (Homo sapiens, UniProt Q52WX2)).
RET (Homo sapiens, UniProt P07949) — remaining binding: 88%.
It gave 100% for remaining binding (BMPR2 (Homo sapiens, UniProt Q13873)).
For PRKAA1 (Homo sapiens, UniProt Q13131): remaining binding read 100%.
It gave 80% for remaining binding (ERBB4 (Homo sapiens, UniProt Q15303)).
It gave 100% for remaining binding (PHKG1 (Homo sapiens, UniProt Q16816)).

Study 3
Target: Sox, HMG box (Pigoraptor chileana)
Technique: Spec-seq
Molecule type: double-stranded DNA, one strand shown
Medium: in vitro
Concentration: not given
Setting: whole probe, mean of replicates
Baseline: not given
Reading: lower = stronger binding
Shared flanks, not repeated: GAGTCGTCTCGTCAGCAC … CCGTAGAGCACTCAGGTC
Construct (chain): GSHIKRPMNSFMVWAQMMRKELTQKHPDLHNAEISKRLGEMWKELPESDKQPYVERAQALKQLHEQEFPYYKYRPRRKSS
`TCGCGTT` — result for “relative binding energy”: 1.22 ln ratio.
`CATTCCA`: “relative binding energy” 0.54 ln ratio.
Under “relative binding energy”, `GCAAGTT` is recorded as 0.926 ln ratio.
`GACAGTT`: “relative binding energy” -0.0211 ln ratio.
`CATGAGG`: “relative binding energy” 0.424 ln ratio.
Under “relative binding energy”, `CATCAGA` is recorded as 0.341 ln ratio.
`CATACAG` — result for “relative binding energy”: -0.322 ln ratio.
`CATAGCA` — result for “relative binding energy”: -0.183 ln ratio.

Study 4
SMILES: Nc1nc(Nc2ccc(S(N)(=O)=O)cc2)nn1C(=S)Nc1c(F)cccc1F
Effect on: enzyme activity
Action: inhibitor
Concentration: 0.5 µM
Baseline: control
It gave 61.5% for remaining activity (PRKG2 (Homo sapiens, UniProt Q13237)).
For MET (Homo sapiens, UniProt P08581): remaining activity read 40.4%.
ROCK1 (Homo sapiens, UniProt Q13464) — remaining activity: 0.17%.
The remaining activity was 94.6% (MAP2K1 (Homo sapiens, UniProt Q02750)).
MAPK11 (Homo sapiens, UniProt Q15759) — remaining activity: 78.5%.
For MARK4 (Homo sapiens, UniProt Q96L34): remaining activity read 2.33%.
The remaining activity was 1.92% (CLK4 (Homo sapiens, UniProt Q9HAZ1)).
For Cyclin-dependent kinase 1, with cyclin A (CDK1, Homo sapiens, UniProt P06493): remaining activity read -0.154%.
PLK3 (Homo sapiens, UniProt Q9H4B4) — remaining activity: 92.2%.
The remaining activity was 76.2% (MAPK1 (Homo sapiens, UniProt P28482)).
The remaining activity was 3.43% (MARK2 (Homo sapiens, UniProt Q7KZI7)).
The remaining activity was 95.4% (MAPK14 (Homo sapiens, UniProt Q16539)).
For CLK3 (Homo sapiens, UniProt P49761): remaining activity read 4.64%.

Some of these lines once more (study 4):
For Cyclin-dependent kinase 1, with cyclin A (CDK1, Homo sapiens, UniProt P06493): remaining activity read -0.154%.
PLK3 (Homo sapiens, UniProt Q9H4B4) — remaining activity: 92.2%.
The remaining activity was 76.2% (MAPK1 (Homo sapiens, UniProt P28482)).
The remaining activity was 3.43% (MARK2 (Homo sapiens, UniProt Q7KZI7)).
The remaining activity was 95.4% (MAPK14 (Homo sapiens, UniProt Q16539)).
For CLK3 (Homo sapiens, UniProt P49761): remaining activity read 4.64%.
